Measured values from different studies.
Parts stem from different laboratories: compare values within a part only. Changes are numbered by the printed parent chain.

Block 1
Target: RNA binding protein fox-1 homolog 2, RRM domain, GST-SBP tag (RBFOX2, Homo sapiens, UniProt O43251-10, residues 100-194)
Method: RNA Bind-n-Seq
Molecule type: RNA
Medium: in vitro
Tested at: 365 nM
Setting: natural RNA segment, single round, ends assumed
Relative to: no-protein control
Reading: higher = stronger binding
Under “RBNS enrichment (R)”, `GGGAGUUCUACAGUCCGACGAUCGGCAACCAGCUGAUUCUGUACAGGGUACACUUGACUGUGGGUAUGCAGGUGGCAGCUGCAGCCCUCCUGUGCUUGUGUACGCAUGACUGCAUGGACCAGCACCACUGCCUUGGAAUUCUCGGGUGCCAA` is recorded as 6.45.
`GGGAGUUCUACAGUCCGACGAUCUUAUUUAAUAAGAGUAAAAAUAUGUGAAUCUGGAUAUAUUUAAAAAAAGAAAUUUGAUGCCCAGAUAAUAUAUUAGGCACUACUGAUUUUUUAGUUAAAUUGAUGCACUAUGGAAUUCUCGGGUGCCAA`: “RBNS enrichment (R)” 0.922.
Under “RBNS enrichment (R)”, `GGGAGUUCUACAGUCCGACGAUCUUCCAGUCUCUUCCCCCUUUCUAUCCCAAUCACCAAUAGAAAUGCUAACAUCCCUGCCUGGUAGCCAGACUAGCCCACUAAAGCUCCCCUGUAAAUGGGGGCUCCAUUAGUGGAAUUCUCGGGUGCCAA` is recorded as 0.802.
`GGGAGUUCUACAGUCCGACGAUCGAUUUGUAGACUCAUGCUAACUUUACUGCCUCUUUUUCACACUUGUUGAAAAAUCUGUGAAGAACAUAGUAAGUUAAGGUUUUCCAACUUGGAAAAAUGUACAUGAUGUGUGGAAUUCUCGGGUGCCAA` — result for “RBNS enrichment (R)”: 0.449.
`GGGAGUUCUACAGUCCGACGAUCCUCUUCCACAGUUAACCAGGUCUCCACCAGGGCUUUCUUUCCAUGUGUUUUUCUUCUUGUUGUUUUAGAACUUUUUCAAAAACAAACAAGACAAACAAACAUAAAAAUAGUGGAAUUCUCGGGUGCCAA`: “RBNS enrichment (R)” 0.405.
Under “RBNS enrichment (R)”, `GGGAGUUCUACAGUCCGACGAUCUAAUGCUAUCUGAAAAAUGUGUUUAUAUUAUAUUUUCAGAGCUGCAAUUCUUAUUCGCCAUUUCAAUACCUAGAGAUAGAGAGUCUUGUAUUUGAAGCCACACACACUGGUGGAAUUCUCGGGUGCCAA` is recorded as 0.444.
For `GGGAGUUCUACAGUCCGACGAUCGUGGGGGAUGGAGGGCCCCCACCCCUGCUUCACAGAAUAAUGGGAAGUGACUCUAGUCUUUGUAAGCAAUUUUCAUUCUCAUUAGGAAGUUAAAUGUAGAUUCACAGAUAUGGAAUUCUCGGGUGCCAA`, “RBNS enrichment (R)” read 0.622.
For `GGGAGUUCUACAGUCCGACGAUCAGGUGCUCCCUCCACCCAAUACCAUUUCUUACCCUCUAAUCCUACCUGAUCUUUAACAAAGCAUUAAUAAUUCUAAGGAUAAUCUCUAUUUUGUUGUGCUUUUUUGUAACUGGAAUUCUCGGGUGCCAA`, “RBNS enrichment (R)” read 0.536.

Block 2
Target: JDP2, bZIP domain (human)
Method: DHFR protein complementation
Medium: yeast
Setting: single substitutions, most at no-binding floor
Relative to: wild-type JUN-FOS pair
Reading: higher = stronger binding
Starting sequence: JUN, bZIP domain (human); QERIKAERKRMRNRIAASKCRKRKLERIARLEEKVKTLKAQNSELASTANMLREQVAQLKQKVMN; partner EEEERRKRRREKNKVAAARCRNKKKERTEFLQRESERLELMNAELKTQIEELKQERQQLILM
`S47A` gave a binding fitness of 0.282 natural log.
`T48V` gave a binding fitness of 0.255 natural log.
`E44G` has a binding fitness of 0.239 natural log.
`A49P` gave a binding fitness of -0.943 natural log.
`K39L` has a binding fitness of 0.28 natural log.
`T48Y` gave a binding fitness of 0.212 natural log.
The binding fitness of `K39R` is reported as 0.323 natural log.
For `S43T`, the binding fitness was 0.338 natural log.
For `R30M`, the binding fitness was 0.31 natural log.
The binding fitness of `L38W` is reported as -0.00949 natural log.
With `A46E` the binding fitness was 0.286 natural log.
With `S43W` the binding fitness was 0.235 natural log.
The binding fitness of `K36P` is reported as -0.277 natural log.
The binding fitness of `V56A` is reported as -0.0182 natural log.
With `A49V` the binding fitness was 0.251 natural log.
`T48F` has a binding fitness of 0.163 natural log.
With `S47L` the binding fitness was 0.242 natural log.
With `A49W` the binding fitness was 0.179 natural log.
With `E44N` the binding fitness was 0.211 natural log.
For `Q41M`, the binding fitness was 0.301 natural log.
`K36D` gave a binding fitness of 0.267 natural log.
The binding fitness of `R30W` is reported as 0.286 natural log.

Block 3
Target: CCNB2, cyclin fold, Cln2 fusion (human)
Method: yeast growth competition, sequencing
Medium: yeast
Setting: weak parent motif
Relative to: not given
Reading: higher = stronger binding
Starting sequence: CENPC docking peptide (human); VKTKKRLNFDDKV; partner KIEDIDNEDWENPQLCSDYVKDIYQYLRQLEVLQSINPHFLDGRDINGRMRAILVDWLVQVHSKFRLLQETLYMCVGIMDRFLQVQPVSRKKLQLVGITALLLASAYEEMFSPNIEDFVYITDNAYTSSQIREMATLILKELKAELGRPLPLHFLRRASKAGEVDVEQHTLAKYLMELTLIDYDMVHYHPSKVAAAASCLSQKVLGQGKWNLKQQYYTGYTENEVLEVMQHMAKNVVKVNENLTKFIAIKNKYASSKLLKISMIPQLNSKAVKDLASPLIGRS
`VKTKKRLNFDDKA [V13A]` — result for “normalised enrichment score”: 0.153.
Under “normalised enrichment score”, `VKTKKALNFDDKV [R6A]` is recorded as 0.345.
Under “normalised enrichment score”, `VKTAKRLNFDDKV [K4A]` is recorded as 0.439.
`VKTKARLNFDDKV [K5A]`: “normalised enrichment score” 0.56.
For `VKTKRRLNLDDKV [K5R F9L]`, “normalised enrichment score” read 0.775.
`AKTKKRLNFDDKV [V1A]` — result for “normalised enrichment score”: 0.267.
For `VKTKKRANFDDKV [L7A]`, “normalised enrichment score” read 0.412.

Block 4
Target: UBE2E2 UBC core domain (UniProt Q96LR5)
Chain of UniProt Q96LR5 (whole entry, looked up): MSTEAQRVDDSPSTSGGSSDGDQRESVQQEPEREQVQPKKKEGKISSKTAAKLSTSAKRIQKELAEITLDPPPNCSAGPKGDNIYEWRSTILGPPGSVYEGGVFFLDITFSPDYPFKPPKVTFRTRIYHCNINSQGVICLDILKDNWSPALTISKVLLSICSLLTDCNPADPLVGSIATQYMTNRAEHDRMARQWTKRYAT
Method: yeast two-hybrid
Medium: yeast
Setting: mostly zero background
Relative to: not given
Reading: higher = stronger interaction
B1: RNF182 RING domain (UniProt Q8N6D2); chain AESQASDELECKICYNRYNLKQRKPKVLECCHRVCAKCLYKIIDFGDSPQGVIVCPFCRFETCLPDDEV
B2: CNOT4 RING domain (UniProt O95628); chain MSRSPDAKEDPVECPLCMEPLEIDDINFFPCTCGYQICRFCWHRIRTDENGLCPACRKPYPED
B3: ZMYND11 RING domain (UniProt Q15326); chain DEIDWETENHDWYCFECHLPGEVLICDLCFRVYHSKCLSDEFRLRDSSSPWQCPVCRSIKKKNTNKQEM
B4: RNF6 RING domain (UniProt Q9Y252); chain NSIDSELGKICSVCISDYVTGNKLRQLPCMHEFHIHCIDRWLSENCTCPICRQPVLGSNIAN
B5: TRIM11 RING domain (UniProt Q96F44); chain LSTNLQEEATCAICLDYFTDPVMTDCGHNFCRECIRRCWGQPEGPYACPECRELSPQRNLRP
For `DDVLTKDAGECVICLEELLQGDTIARLPCLCIYHKSCIDSWFEVNRSCPEHPAD (ZNRF1 RING domain (UniProt Q8ND25))`, “lacZ reporter activity” read 0.
Under “lacZ reporter activity”, `B1 (RNF182 RING domain)` is recorded as 0.
`LEALSSDFLACKICLEQLRAPKTLPCLHTYCQDCLAQLADGGRVRCPECRETVPVPPEGV (TRIM56 RING domain (UniProt Q9BRZ2))` — result for “lacZ reporter activity”: 0.
Under “lacZ reporter activity”, `B2 (CNOT4 RING domain)` is recorded as 0.
Under “lacZ reporter activity”, `B3 (ZMYND11 RING domain)` is recorded as 0.
`B4 (RNF6 RING domain)`: “lacZ reporter activity” 0.
Under “lacZ reporter activity”, `LVKDFNPYITCYICKGYLIKPTTVTECLHTFCKTCIVQHFEDSNDCPRCGNQVHETNPLE (PCGF5 RING domain (UniProt Q86SE9))` is recorded as 0.
`B5 (TRIM11 RING domain)` — result for “lacZ reporter activity”: 0.
For `FAEQPSVKLCCQLCCSVFKDPVITTCGHTFCRRCALKSEKCPVDNVKLTVVVNNI (TRAF7 RING domain (UniProt Q6Q0C0))`, “lacZ reporter activity” read 0.

Block 5
Target: ABI1, truncated, D143A, DHFR fusion (Arabidopsis thaliana)
Method: DHFR PCA, deep sequencing
Medium: yeast
Setting: methotrexate growth selection, single substitutions
Together with: (+)-ABA 0.032 µM
Relative to: wild-type fitted maximum
Reading: higher = stronger binding
Starting sequence: PYL1, truncated, DHFR fusion (Arabidopsis thaliana); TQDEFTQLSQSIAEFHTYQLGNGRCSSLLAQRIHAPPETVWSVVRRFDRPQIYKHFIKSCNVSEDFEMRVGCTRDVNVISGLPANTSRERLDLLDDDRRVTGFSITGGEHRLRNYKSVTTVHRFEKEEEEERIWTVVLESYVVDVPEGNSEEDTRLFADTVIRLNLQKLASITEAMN
`L164D`: “relative binding score” 2.49%.
Under “relative binding score”, `V136A` is recorded as 3.95%.
`E130R`: “relative binding score” 24.6%.
`D3H` — result for “relative binding score”: 20.3%.
For `L169K`, “relative binding score” read -3.8%.
`E64H`: “relative binding score” 24.8%.
Under “relative binding score”, `R69G` is recorded as 4.7%.
`I133T` — result for “relative binding score”: 36%.
`I79N`: “relative binding score” 0.46%.
`T6P`: “relative binding score” 44.1%.
`Q167Y`: “relative binding score” -10.8%.
For `E147I`, “relative binding score” read 7.91%.
`I105T`: “relative binding score” -2.09%.
`E152Y`: “relative binding score” 2.51%.
`E64C`: “relative binding score” 7.92%.
`R113F`: “relative binding score” 0.749%.
For `D3A`, “relative binding score” read 26.4%.
For `I33D`, “relative binding score” read 2.7%.
`R24A` — result for “relative binding score”: 2.74%.
For `S117E`, “relative binding score” read 1.04%.
`V43F`: “relative binding score” -2.88%.
For `G21N`, “relative binding score” read 6.15%.
Under “relative binding score”, `E89A` is recorded as -2.38%.
Under “relative binding score”, `N85I` is recorded as 64.1%.
For `C60V`, “relative binding score” read 41.4%.
